Experimental data pooled from the literature.
Compare with care: the assays were run in different laboratories.
Organism: Escherichia coli

N=C(N)NCCC[C@H](NC(=O)[C@H](Cc1c[nH]c2ccccc12)NC(=O)[C@@H](N)CCCNC(=N)N)C(=O)N[C@@H](Cc1c[nH]c2ccccc12)C(=O)N[C@@H](CCC(N)=O)C(=O)N[C@@H](Cc1ccccc1)C(=O)N[C@@H](CCC(N)=O)C(=O)N[C@@H](Cc1ccccc1)C(=O)N[C@@H](CCCCN)C(N)=O — MIC (broth microdilution, optical density): 4.8 µM
CC1(C)SC2C(NC(=O)C(NC(=O)C3=C(O)C(Cc4ccc(O)cc4)NC3=O)c3ccccc3)C(=O)N2C1C(=O)O (centres unmarked) — MIC (broth microdilution; Keio mutant JW2142-1): 50 µg/mL
CCCCCCC/C=C/C(=O)N1CC(=O)/C(=C(\C)O)C1=O — MIC (K12 ΔtolC): 3.13 µg/mL
CC[C@H](C)[C@H](NC(=O)[C@H](CCCCN)NC(=O)[C@H](CCCCN)NC(=O)CNC(=O)[C@H](CCCCN)NC(=O)[C@H](CC(C)C)NC(=O)[C@H](CCCCN)NC(=O)[C@H](CCCNC(=N)N)NC(=O)[C@@H](NC(=O)[C@H](CC(C)C)NC(=O)[C@H](CCCNC(=N)N)NC(=O)[C@@H](N)CCCNC(=N)N)[C@@H](C)CC)C(=O)N[C@@H](Cc1ccc(O)cc1)C(=O)N[C@@H](CC(C)C)C(=O)N[C@@H](Cc1ccc(O)cc1)C(=O)N[C@@H](Cc1ccccc1)C(=O)N[C@@H](CCCCN)C(=O)N[C@@H](CC(C)C)C(=O)N[C@@H](CCC(N)=O)C(=O)N[C@@H](CC(C)C)C(=O)N[C@@H](CC(C)C)C(=O)N[C@@H](CCCCN)C(=O)N[C@@H](CCCCN)C(N)=O — MIC (KCTC 1682, Mueller-Hinton broth; together with: 4.5 mM KCl): 16 µM
O=C(O)CN(CC(=O)O)CC(=O)O — MIC (NDM-1 producer; 32 µg/mL, MIC of meropenem, together with: meropenem): 0.5 µg/mL
C[C@H]1COCCN1c1nc(NCc2cccnc2C(F)(F)F)c2cccnc2n1 — MIC (broth microdilution; 77): 128 µg/mL
CC[C@H](C)[C@H](N)C(=O)N[C@@H](CC(C)C)C(=O)NCC(=O)N[C@H](CCCNC(=N)N)C(=O)N[C@H](C(=O)N[C@@H](Cc1c[nH]c2ccccc12)C(=O)N[C@@H](CCCCN)C(=O)NCC(=O)N[C@H](C(=O)N[C@@H](CCCCN)C(=O)N[C@@H](CC(=O)O)C(=O)N[C@H](C(=O)N[C@@H](CC(C)C)C(N)=O)[C@@H](C)CC)[C@@H](C)CC)[C@@H](C)CC — MIC (broth microdilution; ATCC 25922; together with: NH4Cl 6 µM): 12.5 µM
CC[C@@H](C)[C@@H](N)C(=O)N[C@@H](C(=O)N[C@H](Cc1ccc(O)cc1)C(=O)N[C@@H](C(=O)N[C@H](CCCNC(=N)N)C(=O)N[C@H](CC(C)C)C(=O)N[C@H](CO)C(=O)N[C@H](CCCNC(=N)N)C(=O)N[C@@H](C(=O)N[C@H](CCCNC(=N)N)C(=O)N[C@H](Cc1c[nH]cn1)C(=O)N[C@H](CCCNC(=N)N)C(=O)N[C@H](C)C(=O)N[C@H](CCCNC(=N)N)C(=O)N[C@H](CCCNC(=N)N)C(N)=O)[C@H](C)CC)[C@H](C)CC)[C@H](C)CC — MIC (ATCC 25922, Mueller-Hinton broth; 20 h, 37 °C): 8 µg/mL
CC[C@H](C)[C@H](NC(=O)[C@H](CCCCN)NC(=O)[C@@H](NC(=O)[C@@H](NC(=O)[C@H](CC(C)C)NC(=O)[C@H](CCCNC(=N)N)NC(=O)[C@@H](NC(=O)[C@H](CC(C)C)NC(=O)[C@H](CCCNC(=N)N)NC(=O)CNC(=O)[C@H](Cc1ccccc1)NC(=O)[C@@H](N)CCCNC(=N)N)[C@@H](C)CC)[C@@H](C)CC)C(C)C)C(=O)N[C@@H](C)C(=O)N[C@@H](CCCNC(=N)N)C(=O)N[C@@H](CCCNC(=N)N)C(=O)N[C@@H](C)C(=O)N[C@@H](Cc1c[nH]cn1)C(=O)N[C@@H](CCCNC(=N)N)C(=O)N[C@@H](C)C(=O)N[C@@H](CCCNC(=N)N)C(=O)N[C@@H](CO)C(=O)N[C@@H](C)C(=O)N[C@H](C(=O)N[C@@H](CCCCN)C(=O)N[C@@H](C)C(=O)N[C@@H](C)C(=O)N[C@@H](CO)C(=O)N[C@@H](CC(N)=O)C(=O)N[C@H](C(=O)N[C@@H](C)C(=O)N[C@@H](CCC(=O)O)C(=O)N[C@@H](CC(C)C)C(=O)N[C@@H](C)C(=O)N[C@@H](Cc1c[nH]cn1)C(=O)NCC(=O)N[C@@H](CCC(=O)O)C(=O)O)C(C)C)C(C)C — MIC (bacterial growth, broth microdilution; cation-adjusted Mueller Hinton broth; 18 h, 37 °C): 0.501 µM
CC[C@H](C)[C@H](NC(=O)[C@H](CCCNC(=N)N)NC(=O)[C@H](CCCNC(=N)N)NC(=O)[C@H](CCCNC(=N)N)NC(=O)[C@H](CCCNC(=N)N)NC(=O)[C@H](CCCNC(=N)N)NC(=O)[C@@H](N)CCCNC(=N)N)C(=O)N[C@@H](CO)C(=O)N[C@@H](Cc1ccccc1)C(=O)N[C@@H](CC(C)C)C(=O)NCC(=O)N[C@@H](CO)C(=O)N[C@@H](CCCCN)C(=O)N[C@@H](CCCCN)C(=O)N[C@@H](CCCCN)C(=O)N[C@@H](CCCCN)C(=O)N[C@@H](CCCCN)C(=O)N[C@@H](CC(C)C)C(=O)N[C@@H](CC(C)C)C(=O)N[C@@H](CCCCN)C(=O)N[C@@H](CCCNC(=N)N)C(N)=O — MIC (checkerboard; 24 h, 37 °C, alone, rifampicin plate): 32 µM
CC[C@H](C)[C@H](NC(=O)CNC(=O)[C@H](CC(=O)O)NC(=O)[C@H](CCCNC(=N)N)NC(=O)[C@@H](NC(=O)[C@H](CC(N)=O)NC(=O)[C@H](CCCNC(=N)N)NC(=O)CNC(=O)[C@@H](NC(=O)[C@H](CCCCN)NC(=O)[C@H](CCC(=O)O)NC(=O)[C@@H](NC(=O)[C@H](CCCCN)NC(=O)[C@H](CCCCN)NC(=O)[C@H](Cc1ccccc1)NC(=O)[C@@H](NC(=O)[C@H](CCCCN)NC(=O)[C@H](Cc1c[nH]c2ccccc12)NC(=O)[C@@H](N)CCCNC(=N)N)[C@@H](C)CC)[C@@H](C)CC)C(C)C)C(C)C)C(=O)N[C@H](C(=O)N[C@@H](CCCCN)C(=O)N[C@@H](C)C(=O)NCC(=O)N1CCC[C@H]1C(=O)N[C@@H](C)C(=O)N[C@H](C(=O)N[C@@H](C)C(=O)N[C@H](C(=O)N[C@H](C(=O)NCC(=O)N[C@@H](CCC(N)=O)C(=O)N[C@@H](C)C(=O)N[C@@H](C)C(=O)N[C@H](C(=O)N[C@H](C(=O)N[C@H](C(=O)N[C@@H](CCC(=O)O)C(N)=O)C(C)C)C(C)C)[C@@H](C)O)C(C)C)C(C)C)C(C)C)[C@@H](C)CC — MIC (K1 ATCC 700973, Mueller-Hinton broth; 16 h, 37 °C; growth inhibition over 99%): 2 µM
CC(C)Oc1c(NC(=O)c2ccc(N3C(=O)C[C@H](NC(=O)c4ccc(NC(=O)c5ccc(C#N)cc5)cc4)C3=O)cc2)ccc(C(=O)N/N=C/c2cnn(C)c2)c1O — MIC (BW25113; 18 h, 37 °C, dark-adapted state): 0.32 µg/mL
CCCCCCCC(=O)N[C@@H](CCN)C(=O)N[C@H](C(=O)N[C@@H](CCN)C(=O)N[C@H]1CCNC(=O)[C@H]([C@@H](C)O)NC(=O)[C@H](CCN)NC(=O)[C@H](CCN)NC(=O)[C@H](Cc2ccccc2)NC(=O)[C@@H](CCc2ccccc2)NC(=O)[C@H](CCN)NC1=O)[C@@H](C)O — MIC (broth microdilution; ATCC 25922, colistin-susceptible): 0.5 to 1 µg/mL
CC[C@H](C)[C@H](NC(=O)[C@H](CCCCN)NC(=O)[C@H](CC(=O)O)NC(=O)[C@H](CC(C)C)NC(=O)[C@@H](NC(=O)[C@H](CC(N)=O)NC(=O)[C@H](CC(C)C)NC(=O)[C@@H](NC(=O)[C@H](Cc1ccccc1)NC(=O)[C@H](CCCCN)NC(=O)[C@H](CCCCN)NC(=O)CNC(=O)[C@H](C)NC(=O)[C@H](CC(N)=O)NC(=O)[C@H](CCCCN)NC(=O)[C@H](Cc1ccccc1)NC(=O)[C@H](CC(N)=O)NC(=O)[C@H](CCC(=O)O)NC(=O)[C@H](Cc1c[nH]c2ccccc12)NC(=O)[C@H](CC(C)C)NC(=O)[C@@H](N)CO)[C@@H](C)CC)[C@@H](C)CC)C(=O)N[C@@H](CCCNC(=N)N)C(N)=O — MIC (ATCC 8739; overnight, 37 °C, no added salts or serum): 2 µM
CN1C(=O)Cc2ccc(F)c(CCNCC[C@H]3CN(c4ccc5c(n4)NC(=O)CO5)C(=O)O3)c21 — MIC (ATCC 25922): 0.06 µg/mL
Cn1cc(NC(=O)C(CC(N)=O)NC(=O)c2ccc(NC(=O)c3ccc(C#N)cc3)cc2)cc1-c1nc2ccc(C(=O)Nc3ccc(C(=O)O)cc3)c(O)c2[nH]1 (centres unmarked) — MIC (K12 ΔtolC): > 64 µg/mL
CCCCCCCCCC(=O)N[C@@H](Cc1c[nH]c2ccccc12)C(=O)N[C@H](CC(N)=O)C(=O)N[C@@H](CC(=O)O)C(=O)N[C@@H]1C(=O)NCC(=O)N[C@@H](CCCN)C(=O)N[C@@H](CC(=O)O)C(=O)N[C@H](C)C(=O)N[C@@H](CC(=O)O)C(=O)NCC(=O)N[C@H](CO)C(=O)N[C@@H]([C@H](C)CC(=O)O)C(=O)N[C@@H](CC(=O)c2ccccc2N)C(=O)O[C@@H]1C — MIC (broth dilution; K12 MG1655 efflux knock-out): 180 µM
CC1NC(=O)C(C(=O)NC(C(=O)NC2C(=O)N3C2SC(C)(C)C3C(=O)O)c2ccccc2)=C1O (centres unmarked) — MIC (broth microdilution; isolate IU, CTX-M-14, TEM-1; no clavulanic acid): > 200 µg/mL
CC[C@H](C)[C@H](NC(=O)CNC(=O)[C@H](CC(=O)O)NC(=O)[C@H](CCCNC(=N)N)NC(=O)[C@@H](NC(=O)[C@H](CC(N)=O)NC(=O)[C@H](CCCNC(=N)N)NC(=O)CNC(=O)[C@@H](NC(=O)[C@H](CCCCN)NC(=O)[C@H](CCC(=O)O)NC(=O)[C@@H](NC(=O)[C@H](CCCCN)NC(=O)[C@H](CCCCN)NC(=O)[C@H](Cc1ccccc1)NC(=O)[C@@H](NC(=O)[C@H](CCCCN)NC(=O)[C@H](Cc1c[nH]c2ccccc12)NC(=O)[C@@H](N)CCCNC(=N)N)[C@@H](C)CC)[C@@H](C)CC)C(C)C)C(C)C)C(=O)N[C@H](C(=O)N[C@@H](CCCCN)C(=O)N[C@@H](C)C(=O)N1CCC[C@H]1C(=O)N1CCC[C@H]1C(=O)N[C@@H](C)C(=O)N[C@H](C(=O)N[C@@H](C)C(=O)N[C@H](C(=O)N[C@H](C(=O)NCC(=O)N[C@@H](CCC(N)=O)C(=O)N[C@@H](C)C(=O)N[C@@H](C)C(=O)N[C@H](C(=O)N[C@H](C(=O)N[C@H](C(=O)N[C@@H](CCCCN)C(N)=O)C(C)C)C(C)C)[C@@H](C)O)C(C)C)C(C)C)C(C)C)[C@@H](C)CC — MIC (K1 ATCC 700973, Mueller-Hinton broth; 16 h, 37 °C; growth inhibition over 99%): 2 µM
CC1(C)S[C@@H]2[C@H](NC(=O)Cc3ccccc3)C(=O)N2[C@H]1C(=O)O — MIC: 250 µg/mL
